Assay results from different studies.
Numbered parts are unrelated; each lists some results of a single study. Substitutions count along the parent as printed.

Set 1
Target: CREB3L1, bZIP domain (human)
Method: DHFR protein complementation
Sample: yeast
Setting: single substitutions, most at no-binding floor
Baseline: wild-type JUN-FOS pair
Direction: higher = stronger binding
Endpoint: binding fitness
Starting sequence: JUN, bZIP domain (human); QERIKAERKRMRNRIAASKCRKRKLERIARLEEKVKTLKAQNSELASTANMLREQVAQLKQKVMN; partner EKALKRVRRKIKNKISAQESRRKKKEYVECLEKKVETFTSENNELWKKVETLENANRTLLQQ
A57G: -1.33 natural log
I28G: -1.43 natural log
I28N: -1.21 natural log
K39G: -1.4 natural log
A29N: -1.5 natural log
S43M: -1.34 natural log
E32L: -1.43 natural log
E44N: -1.36 natural log
A29M: -1.38 natural log
N42R: -1.34 natural log
R30H: -1.5 natural log
L52E: -1.44 natural log
Q55E: -1.46 natural log
K34G: -1.4 natural log
E32S: -1.47 natural log
A57H: -1.43 natural log
N42S: -1.46 natural log
K36Q: -1.5 natural log
N42Q: -1.4 natural log
A40T: -1.31 natural log
S47F: -1.39 natural log
Q55K: -1.52 natural log
R30P: -1.49 natural log
A49G: -1.41 natural log
A46G: -1.39 natural log

Set 2
Target: Ras GTPase-activating protein-binding protein 1, C-terminal RGG region (G3BP1, Homo sapiens, UniProt Q13283)
UniProt Q13283, sequence (whole entry, looked up): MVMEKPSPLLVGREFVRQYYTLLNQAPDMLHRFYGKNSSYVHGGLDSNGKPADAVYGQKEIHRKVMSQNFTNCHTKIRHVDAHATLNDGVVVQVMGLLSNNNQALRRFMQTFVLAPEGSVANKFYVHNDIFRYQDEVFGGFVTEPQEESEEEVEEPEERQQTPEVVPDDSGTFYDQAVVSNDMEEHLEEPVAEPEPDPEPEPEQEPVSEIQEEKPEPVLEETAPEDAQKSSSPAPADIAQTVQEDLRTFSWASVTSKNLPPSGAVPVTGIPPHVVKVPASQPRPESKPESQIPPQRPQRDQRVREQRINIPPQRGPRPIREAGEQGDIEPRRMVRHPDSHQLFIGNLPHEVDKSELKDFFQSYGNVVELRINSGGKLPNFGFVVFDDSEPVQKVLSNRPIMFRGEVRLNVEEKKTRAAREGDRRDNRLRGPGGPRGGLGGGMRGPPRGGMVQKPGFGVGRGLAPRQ
Method: RNA Bind-n-Seq
Molecule type: RNA
Sample: in vitro
Tested at: 1 µM
Setting: whole 134-nt RNA, ends assumed
Added: 150 mM KCl
Baseline: input library
Direction: higher = stronger binding
Endpoint: log2 enrichment
All sequences stand within: GGGAGUUCUACAGUCCGACGAUC … UGGAAUUCUCGGGUGUCAAGG
CCUCAAGUCCUGUGCUACACAUCGUAUGUACCGAAUCGGAGGGGAGGGGAGGGAAAGUAUUAUGUUACGCCGUUCGGAUCUGCACUUCCA: 1.1
ACCAUGCAGGUGGGCAUCUUUGGGAAGUGGGGCAAGGGGGGGAUAGUGAGGGGGGUAACACUUUGGGAACAGGUGGUCCCAGGUCGUUUC: 2.19
UAACUUUAGAGGAGGAUCUGAUGGAUAUGGCAGUGGACUUGGAUUUGGGGAUGGCUAUAAUGGGUAUGGAGGAGGACCUGGAGGUGGCAA: -1.16
UCCUGUGCUACACAUCGUAUGUACCGAAUCGGGGCCCCCCGGCCCCCCGGGCCCCCCGGAAAGUAUUAUGUUACGCCGUUCGGAUCUGCA: -0.664
ACCAUGCAGGUGGGCAUCUUUGGGAAGUGGGGCAAGGGGGGGAUAGGGCGGGGGGUAACACUUUGGGAACAGGUGGUCCCAGGUCGUUUC: 2.18
ACAAUGCAGGUGGGCAUCUUUGGGAAGUGGGGCAAGGGGGGGAUAGGGAGGGGGGUAACACUUUGGGAACAGGUGGUCCCAGGUCGUUUC: -1.14
UUACUACCUCCGCCUUCAUUUCCGUCAGCAAUCCCGGCGCGGGCUCCCCGGCCCCCGCCAGCCCGCCUCCCCUCGCUGUGCCCGGGACCG: -0.12
CUGUGCUACACAUCGUAUGUACCGAAUCGGGAAAAAAAGGGGAAAAAAAGGAAAAAAAGGGAAAGUAUUAUGUUACGCCGUUCGGAUCUG: -1.57
CUCAAGUCCUGUGCUACACAUCGUAUGUACCGAAUCGGAAGGGGAAGGGGAAGGAAAGUAUUAUGUUACGCCGUUCGGAUCUGCACUUCC: -1.12
AGUCCUGUGCUACACAUCGUAUGUACCGAAUCGGGGAAAAAGGAAAAAGGAAAAAGGGAAAGUAUUAUGUUACGCCGUUCGGAUCUGCAC: -1.84

Set 3
Target: CCNF, cyclin fold, Cln2 fusion (human)
Method: yeast growth competition, sequencing
Sample: yeast
Setting: strong parent motif
Baseline: not given
Direction: higher = stronger binding
Endpoint: normalised enrichment score
Starting sequence: SCAPER docking peptide (human); SNARRSLNFGGST; partner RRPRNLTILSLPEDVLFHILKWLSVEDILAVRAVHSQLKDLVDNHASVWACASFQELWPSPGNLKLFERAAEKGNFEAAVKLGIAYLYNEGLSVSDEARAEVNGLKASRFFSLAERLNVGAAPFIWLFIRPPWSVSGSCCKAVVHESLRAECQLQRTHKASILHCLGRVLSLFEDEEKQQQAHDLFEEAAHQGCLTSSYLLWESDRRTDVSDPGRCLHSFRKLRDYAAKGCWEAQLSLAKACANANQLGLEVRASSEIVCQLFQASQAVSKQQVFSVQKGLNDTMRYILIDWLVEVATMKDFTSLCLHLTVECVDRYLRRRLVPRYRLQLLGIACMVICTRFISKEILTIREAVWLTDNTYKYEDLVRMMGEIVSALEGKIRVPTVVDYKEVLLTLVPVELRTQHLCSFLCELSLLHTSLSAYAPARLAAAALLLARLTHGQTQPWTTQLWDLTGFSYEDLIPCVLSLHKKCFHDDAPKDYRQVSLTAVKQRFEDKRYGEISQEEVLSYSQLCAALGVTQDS
SAARRSLNFGGST [N2A]: 5.7
SNARDSLNFGGST [R5D]: -0.0131
SNAGRSLNFGGST [R4G]: 1.69
SNAARSLNFGGST [R4A]: 4.68
SNARRSLNMGGST [F9M]: 4.96
SSARRSLNFGGST [N2S]: 7.12
SNARLSLNFGGST [R5L]: 0.313
SNARHSLNFGGST [R5H]: 0.366
SRARRSLNFGGST [N2R]: 6.63
SFARRSLNFGGST [N2F]: 8.14
SNAQRSLNFGGST [R4Q]: 5.2
SGARRSLNFGGST [N2G]: 7.67
SNARRRLNFGGST [S6R]: 9.48
SNARRPLNFGGST [S6P]: 4.28
SNARTSLNFGGST [R5T]: 0.813
SNARRSNNFGGST [L7N]: 0.708

Further values, each from its own experiment
PhoQ, residues 284 288 289 292 302 303 NLAAMI — fold induction (PhoP, residues 12 14 15 18 19 LFHKL (Escherichia coli, UniProt P23836); Sort-seq, item: YFP reporter; E. coli; PhoQ-PhoP variant library, added: 10 µM Mg2+; baseline: high Mg2+ state, higher = stronger signaling): 0.826

Excerpt of the above (set 1):
A40T: -1.31 natural log
S47F: -1.39 natural log
A57G: -1.33 natural log
A29N: -1.5 natural log
A57H: -1.43 natural log
K36Q: -1.5 natural log
E44N: -1.36 natural log
N42R: -1.34 natural log
